Measurements from different studies.
“And” joins repeats or separate records; there may be more than shown. Numbers after ± are the reported error.

Cc1nc(C)c(-c2ccnc(Nc3ccc(N(C)C)c(Cl)c3)n2)s1  solubility (aqueous buffer; pH 7.4): < 1.54 µg/mL
O=c1[nH]c(=O)n([C@H]2C[C@H](O)[C@@H](CO)O2)cc1CCCCC[18F]  biodistribution (male CD-1 nu/nu mice, RG2 tumour, kidney; intravenous, dose not given, 2 h): 0.55 ± 0.12 %ID/g
N#Cc1ccc2c(c1)[C@H]1CCCN(C(=O)c3ccc4[nH]cnc4c3)[C@H]1C2  total testosterone level (human males; 80 mg, end of trial): 15.1 nmol/L
CC1(C)C(/C=C/C2=C(Cl)C(=C/C=C3\N(CCCCCC(=O)O)c4ccccc4C3(C)C)/CCC2)=[N+](CCCCCC(=O)O)c2ccccc21  Stokes shift (methanol): 26 nm
Cl.[2H]C([2H])([2H])CC(=O)c1cnc(NC(=O)C2CC2)cc1Nc1cccc(-c2ncn(C([2H])([2H])[2H])n2)c1OC  half-life (geometric mean; human; oral, 50 mg single dose, fasted, liquid): 449 min
NC1(C(=O)N[C@@H](CCO)c2ccc(Cl)cc2)CCN(c2nc[nH]c3nccc2-3)CC1  incidence of Diarrhoea (metastatic CRPC patients; 320 mg b.i.d., grade 3 to 4, treatment-related, together with: enzalutamide 160 mg daily): 0%
CNC(=O)c1ccc(-c2cnc3ncc(Cc4ccc5ncccc5c4)n3n2)cc1F  AUC(0-t) (human moderate hepatic impairment; oral, 200 mg single dose, covariate-adjusted geometric mean): 6180 ng·h/mL
C[C@@H](NC(=O)N1C(=O)[C@H](Cc2ccnc(N)c2)[C@H]1C(=O)O)C1CCCCC1  Css (UPLC-MS/MS; healthy adult Chinese volunteers, plasma; continuous intravenous infusion, 2.25 mg/kg/h, day 1 of 5-day infusion, geometric mean): 8000 ng/mL
COc1ccc([C@@H](O)c2cc(-c3ncnc4cc(N5CCOCC5)ccc34)c(F)cc2Cl)nn1  TEAE, radiation skin injury (locally advanced rectal cancer; all dose levels overall, together with: capecitabine and radiotherapy): 32%
COc1ccc2[nH]c([S+]([O-])Cc3ncc(C)c(OC)c3C)nc2c1 (centres unmarked)  AUC(0-inf) (healthy Chinese volunteers, plasma; oral, 20 mg, enteric-coated tablets, CYP2C19 intermediate metabolizers): 838 ± 502 ng·h/mL
O=C(O)CCC(=O)O.[2H]C([2H])([2H])Oc1cc(C)c2[nH]ccc2c1CN1CC[C@@H](C2CC2)C[C@H]1c1ccc(C(=O)O)cc1  subjects with TEAE Constipation (multiple ascending dose; healthy Chinese subjects; 100 mg twice daily): 12.5%
Cc1cccc([C@H]2N[C@@H](c3ccc(-c4ccccn4)cc3)CO[C@@H]2C)c1  solubility (shake-flask, LC-HRMS; aqueous buffer; 16 h, pH 6.8): < 4 µM
CCOc1c([C@H](C)n2nc(C)c3c(N)ncnc32)cc(Cl)c(F)c1[C@@H]1CNC(=O)C1  share of patients (refers to: ΔQTcF ≤ 30 ms; previously treated B-cell malignancy; oral, 30 mg once daily, overall population): 100%
O=C(Nc1ccc(OC(F)(F)Cl)cc1)c1cnc(N2CC[C@@H](O)C2)c(-c2ccn[nH]2)c1  grade ≥2 event rate (per laboratory record, refers to: ALT increase; human patients; oral, dose not given): 0.6%
Cc1ccc(=O)n(-c2ccccc2)c1  AUC(0-t), LS geometric mean (healthy human; oral, 600 mg single, alone): 40000 ng·h/mL
Cc1coc([C@H]2C[C@H]3[C@@H](CF)SC(N)=N[C@@]3(c3ccc(F)cc3F)CO2)n1  CSF concentration (male 129/SVE mouse, CSF; subcutaneous, 80 mg/kg, 9 h): 1 nM
Cn1cc(Nc2nc(N)nc(-c3cccc(-n4ccc5cc(C6CC6)cc(F)c5c4=O)c3CO)n2)cn1  drug-related vomiting subjects (healthy subjects; oral, 300 mg tablet, fasted): 0%
Cc1ccc([C@@H]2O[C@H](CO)[C@@H](O)[C@H](O)[C@H]2O)cc1Cc1ccc(-c2ccc(F)cc2)s1  urinary sodium excretion change (Japanese type 2 diabetes patients; 100 mg, day 3, 24 h urine collection; relative to: baseline): 29.5 mEq
C[C@@H](Oc1ccc(S(C)(=O)=O)cc1C(=O)N1C[C@@H]2C[C@]2(c2cc(C(F)(F)F)on2)C1)C(F)(F)F  linearity index (elderly humans, plasma; oral, 50 mg once daily, geometric mean; relative to: AUCtau,ss over AUC(0-inf)): 0.865
Cc1c(C(=O)O)ccc2c3n(nc12)[C@@H]1[C@H](C3)N(CC2CC2)[C@@]2(C(=O)Nc3cc(Cl)ccc32)[C@H]1c1cccc(Cl)c1F  adverse event incidence (phase Ia trial, refers to: Neutropenia; cancer patients; oral, dose not given, all patients all grades): 31.5%
CCc1ccc(-c2ccc(-c3cc(F)c(F)c(F)c3)c(F)c2)cc1  placental accumulation (rat, placenta; 1000 ng/mL in perfusate, middle dose, mixture of 21 LCMs): 11.2 ± 12.1 ng/g
COc1ccc2c(=O)n(C)c(-c3ccccc3)nc2c1  tissue/plasma ratio (Sprague-Dawley rat, male, spleen; oral, 30 mg/kg, 4 h; relative to: spleen over plasma): 10.2
CCC[C@@H](C)[C@H]1COC(C)(C)[C@@H](c2ccc(Cl)c(Cl)c2)N1  solubility (shake-flask, LC-HRMS; aqueous buffer; 16 h, pH 6.8): < 4 µM
O=C(O)c1ccc(C(=O)Nc2cc(C3CC3)n[nH]2)cc1  solubility (aqueous buffer; pH 7.4): 1900 µg/mL
CCN1CCN(Cc2ccc(NC(=O)c3ccc(C)c(NC(=O)c4cncc(-c5cccs5)c4)c3)cc2C(F)(F)F)CC1  apparent clearance (C57BL/6 mice, epithelial lining fluid; intraperitoneal, 10 mg/kg): 37.1 mL/min/kg
CCO[C@H]1CCN(Cc2c(OC)cc(C)c3[nH]ccc23)[C@H](c2ccc(C(=O)O)cc2)C1  total half-life (mild hepatic impairment, plasma; oral, 200 mg single dose, mean): 1640 min
CN(CCCN1CCN(C(=O)CN2CCN(CC(=O)[O-])CCN(CC(=O)[O-])CCN(CC(=O)[O-])CC2)CC1)c1ccc2nccc(C(=O)NCC(=O)N3CC(F)(F)C[C@H]3C#N)c2c1.[68Ga+3]  uptake (mice, HT-1080.hFAP and HT-1080 wild-type xenografts, kidney; iv, 500 pmol, 4 h post injection): 1.3 ± 0.2 %IA/g
CCC(C)n1ncn(-c2ccc(N3CCN(c4ccc(OCC5COC(Cn6cncn6)(c6ccc(Cl)cc6Cl)O5)cc4)CC3)cc2)c1=O (centres unmarked)  equilibrium solubility (aqueous medium; pH 2): 4 µg/mL
Cc1cc(C(=O)NC(C)(C)COc2cccc3c2C(N)=NS(=O)(=O)N3)cc(C)n1.O=S(=O)(O)O  AUC(last) ratio (Sprague-Dawley rat, plasma; oral, 100 mg/kg, vehicle 1% methylcellulose; relative to: female over male): 1.78
Cc1cc(N[C@H]2CCc3ccc(Cl)cc3C2)n2nc(C(C)(F)F)nc2n1  AUC(0-t) (NSG mouse, whole blood; oral, 30 mg/kg): 28 µM·h
C[C@@H](N)C1CCN(S(=O)(=O)c2cccc3cnccc23)CC1  TEAE incidence (refers to: Syncope; healthy volunteers; 150 mg, fed): 0%
N#Cc1cc([C@@H]2COC[C@]3(CCOC3)N2)ccc1F  solubility (shake-flask, LC-HRMS; aqueous buffer; 16 h, pH 6.8): > 750 µM
CN1CCN(c2cccc3c2CCN(C(=O)/C=C/c2c(-n4cnnn4)ccc(Cl)c2F)[C@@H]3C(=O)Nc2ccc(C(=O)O)cc2)C(=O)C1  discontinuations due to adverse events (healthy human subjects; intravenous infusion, 4 mg/h, 2 h): 0%
O=C(Nc1nc2cccc(-c3ccc(CN4CCS(=O)(=O)CC4)cc3)n2n1)C1CC1  treatment-emergent adverse events (refers to: any adverse event; human rheumatoid arthritis patients; oral, 30 mg once daily, 4 weeks, regardless of relatedness): 41.2%
CCOC(=O)N1C[C@@H](c2ccc(C(C)=O)cc2)N[C@@H](C2CCC2)C1  solubility (shake-flask, LC-HRMS; aqueous buffer; 16 h, pH 6.8): > 750 µM
CCN1/C(=C/C(C)=O)Sc2ccc(F)cc21  QTc interval change (cynomolgus monkey; oral, 30 mg/kg, 0.5 h post-dose; relative to: pre-dose): 101 ± 1.4%
O=C(COc1ccc(Cl)cc1)NC12CC(c3nnc([C@H]4C[C@@H](OC(F)(F)F)C4)o3)(C1)C2  treatment-emergent adverse events (abnormal haematology test; human, both sexes; oral, dose not given, single ascending dose, fasted, all doses; relative to: subjects): 5.6%
N#Cc1ccc([C@@H]2COC[C@@H](c3ccc(F)cc3)N2)cc1  solubility (shake-flask, LC-HRMS; aqueous buffer; 16 h, pH 6.8): > 750 µM
C=CC(=O)NC1CCN(c2ncc3ncnc(Nc4ccc(Oc5ccc6c(c5)ncn6C)c(C)c4)c3n2)CC1  participants with presyncope (human, male; oral, 240 mg, treatment-emergent adverse event): 6.3%
Cn1cc([C@@H]2COC[C@H](c3cccc(Br)c3)N2)cn1  solubility (shake-flask, LC-HRMS; aqueous buffer; 16 h, pH 6.8): > 750 µM
CCc1cc(C(=O)NC)c2nccc(N3CCc4c(cc(Cn5ccnc5)cc4-c4cn(C)nc4C(F)(F)F)C3=O)c2c1  change in clinical chemistry or haematology parameter (refers to: UREA; Sprague Dawley rat; oral, 50 mg/kg once daily, 7 days; relative to: vehicle): 6.9%
C=CCOc1ccc([C@H]2CN(C(=O)OCC)C[C@@H](c3cc(O)c(O)c(Cl)c3)N2)cc1  solubility (shake-flask, LC-HRMS; aqueous buffer; 16 h, pH 6.8): < 4 µM
N[C@@H](C[18F])C(=O)O  tracer uptake (PET imaging; female athymic nude mice, U-87 MG xenograft, tumor; intravenous, 60 min): 1.03 ± 0.16 %ID/cc
O=C(Nc1cnccc1Cl)N1CCN(Cc2ccc3c(c2)OC(F)(F)O3)CC1  adverse event incidence (refers to: Presyncope; human healthy young men; 75 mg, multiple dose): 0%
O=C(O)CCCOc1ccc([18F])cc1-c1cc(-c2ccccc2C(F)(F)F)n(-c2ccccc2)n1  radioactivity uptake (gamma counting; male ddY mice, pancreas; intravenous, 2.1 MBq, 5 min): 0.72 ± 0.14 SUV
CNC(=O)c1ccc(-c2cnc3ncc(Cc4ccc5ncccc5c4)n3n2)cc1F  decreased appetite incidence (all grades) (CTCAE v4.0, any causality; human gastric cancer patients; oral, 600 mg twice daily, expansion cohort at RP2D): 11%
COc1cccc(-c2n[nH]c(SCc3ccccn3)n2)c1OC  Cmax (Sprague-Dawley rats, male, plasma; intravenous, 1.0 mg/kg, single dose): 10900 ng/mL
COc1ccc2c(c1)CN(C(=O)CCN1CCC(Cc3ccccc3)CC1)CC[S@@+]2[O-]  heart rate (telemetry; conscious dog; intravenous, 8 mg/kg, 2 h): 85 ± 27 beats/min
COc1ccc2c(C)nc(Nc3nc(C)cc(O)n3)nc2c1  solubility (aqueous buffer; pH 7.4): < 1.27 µg/mL
C[C@H](CCC(=O)NCC(=O)O)[C@H]1CC[C@H]2[C@@H]3CC[C@@H]4C[C@H](O)CC[C@]4(C)[C@H]3C[C@H](O)[C@]12C  Cmin (human, plasma; endogenous baseline diurnal): 45.7 ± 11.5 nM
Cc1cccc(CNC(=O)c2cn(CCNC(=O)c3ccccc3Sc3c([N+](=O)[O-])ncn3C)c3cc4c(cc3c2=O)OC(F)(F)O4)n1  MRT(0-inf) (Sprague-Dawley rat, male, plasma; intravenous, 20 mg/kg of parent drug): 37.8 ± 6.6 min
CC(C)(C(=O)N1CCOc2c(C#N)cncc2C1)C(F)F  Cmax dose proportionality ratio (healthy humans, both sexes, plasma; oral, 40 mg single dose, 1.33-fold dose increase; relative to: 40 mg over 30 mg): 1.33
Cc1cc(C)c(CNC(=O)c2cc(Cl)c3c(c2C)O[C@@](C)([C@H]2CC[C@H](N(C)C)CC2)O3)c(=O)[nH]1  grade ≥3 Platelet count decreased (relapsed/refractory NHL patients; oral, 200 mg once daily, onset after cycle 1 day 1): 16.7%
O=c1[nH]c(=O)n([C@@H]2O[C@H](CO)[C@@H](O)[C@@H]2F)cc1CCCC[18F]  biodistribution (nude mice, RG2 tumour, skin; intravenous, dose not given, 2 h): 0.13 ± 0.03 %ID/g
CNCCOC12CC3(C)CC(C)(CC(Cn4ncc(-c5ccc(N6CCc7cccc(C(=O)Nc8nc9ccccc9s8)c7C6)nc5C(=O)O)c4C)(C3)C1)C2  mean arterial pressure change (beagle dog, male, anaesthetised; intravenous bolus, 0.03 mg/kg, 45 min; relative to: baseline): -5%
CN(C)C(=N)N=C(N)N  vascular disorder adverse events (healthy human subjects; oral, dose not given): 0%
C[C@@H](Nc1cc(F)cc(F)c1)c1cc(C(=O)N(C)C)cc2c(=O)cc(N3CCOCC3)oc12  patients discontinuing for AE (refers to: Hematuria; advanced solid tumour patients; oral, dose not given, dose expansion): 0%
c1ccc(-c2ccc([C@H]3COC[C@H](c4ccc(-n5cncn5)cc4)N3)cc2)cc1  solubility (shake-flask, LC-HRMS; aqueous buffer; 16 h, pH 6.8): < 4 µM
CCc1c(-c2ccccc2)c(-c2ccccc2)nn1-c1ccccc1-c1cccc(OCC(=O)O)c1  MRT(0-inf) observed (Sprague-Dawley rat; oral): 2.76 h and 3.01 h and 2.99 h

A few entries again:
COc1ccc2[nH]c([S+]([O-])Cc3ncc(C)c(OC)c3C)nc2c1 (centres unmarked)  AUC(0-inf) (healthy Chinese volunteers, plasma; oral, 20 mg, enteric-coated tablets, CYP2C19 intermediate metabolizers): 838 ± 502 ng·h/mL
COc1ccc2c(C)nc(Nc3nc(C)cc(O)n3)nc2c1  solubility (aqueous buffer; pH 7.4): < 1.27 µg/mL
CCOc1c([C@H](C)n2nc(C)c3c(N)ncnc32)cc(Cl)c(F)c1[C@@H]1CNC(=O)C1  share of patients (refers to: ΔQTcF ≤ 30 ms; previously treated B-cell malignancy; oral, 30 mg once daily, overall population): 100%
CNC(=O)c1ccc(-c2cnc3ncc(Cc4ccc5ncccc5c4)n3n2)cc1F  decreased appetite incidence (all grades) (CTCAE v4.0, any causality; human gastric cancer patients; oral, 600 mg twice daily, expansion cohort at RP2D): 11%
O=C(O)CCC(=O)O.[2H]C([2H])([2H])Oc1cc(C)c2[nH]ccc2c1CN1CC[C@@H](C2CC2)C[C@H]1c1ccc(C(=O)O)cc1  subjects with TEAE Constipation (multiple ascending dose; healthy Chinese subjects; 100 mg twice daily): 12.5%
Cc1cc(C)c(CNC(=O)c2cc(Cl)c3c(c2C)O[C@@](C)([C@H]2CC[C@H](N(C)C)CC2)O3)c(=O)[nH]1  grade ≥3 Platelet count decreased (relapsed/refractory NHL patients; oral, 200 mg once daily, onset after cycle 1 day 1): 16.7%
CN(CCCN1CCN(C(=O)CN2CCN(CC(=O)[O-])CCN(CC(=O)[O-])CCN(CC(=O)[O-])CC2)CC1)c1ccc2nccc(C(=O)NCC(=O)N3CC(F)(F)C[C@H]3C#N)c2c1.[68Ga+3]  uptake (mice, HT-1080.hFAP and HT-1080 wild-type xenografts, kidney; iv, 500 pmol, 4 h post injection): 1.3 ± 0.2 %IA/g
